{"data": "Results of several laboratories", "note": "Protocols differ between the studies behind these lines. Numbers after ± are the reported error.", "UniProt Q9NPD5, sequence (whole entry, looked up)": "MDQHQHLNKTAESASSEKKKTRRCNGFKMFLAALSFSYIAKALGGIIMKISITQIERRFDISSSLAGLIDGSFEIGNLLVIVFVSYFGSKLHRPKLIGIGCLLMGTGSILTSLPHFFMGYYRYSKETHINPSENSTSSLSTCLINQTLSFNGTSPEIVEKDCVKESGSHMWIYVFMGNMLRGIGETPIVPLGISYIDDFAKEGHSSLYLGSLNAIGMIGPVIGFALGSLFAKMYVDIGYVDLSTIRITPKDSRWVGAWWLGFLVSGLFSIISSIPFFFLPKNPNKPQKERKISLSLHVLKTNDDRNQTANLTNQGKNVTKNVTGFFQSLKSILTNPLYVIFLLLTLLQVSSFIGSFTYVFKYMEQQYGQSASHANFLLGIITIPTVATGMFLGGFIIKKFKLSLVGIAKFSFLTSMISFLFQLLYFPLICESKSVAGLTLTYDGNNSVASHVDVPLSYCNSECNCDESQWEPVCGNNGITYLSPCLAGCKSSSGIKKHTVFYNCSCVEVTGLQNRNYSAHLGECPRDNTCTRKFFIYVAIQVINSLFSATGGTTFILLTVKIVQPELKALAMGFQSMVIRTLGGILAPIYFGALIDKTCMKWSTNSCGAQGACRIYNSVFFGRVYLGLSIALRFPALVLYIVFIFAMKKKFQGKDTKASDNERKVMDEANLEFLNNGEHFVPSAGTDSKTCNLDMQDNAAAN", "UniProt Q9UNQ0, sequence (whole entry, looked up)": "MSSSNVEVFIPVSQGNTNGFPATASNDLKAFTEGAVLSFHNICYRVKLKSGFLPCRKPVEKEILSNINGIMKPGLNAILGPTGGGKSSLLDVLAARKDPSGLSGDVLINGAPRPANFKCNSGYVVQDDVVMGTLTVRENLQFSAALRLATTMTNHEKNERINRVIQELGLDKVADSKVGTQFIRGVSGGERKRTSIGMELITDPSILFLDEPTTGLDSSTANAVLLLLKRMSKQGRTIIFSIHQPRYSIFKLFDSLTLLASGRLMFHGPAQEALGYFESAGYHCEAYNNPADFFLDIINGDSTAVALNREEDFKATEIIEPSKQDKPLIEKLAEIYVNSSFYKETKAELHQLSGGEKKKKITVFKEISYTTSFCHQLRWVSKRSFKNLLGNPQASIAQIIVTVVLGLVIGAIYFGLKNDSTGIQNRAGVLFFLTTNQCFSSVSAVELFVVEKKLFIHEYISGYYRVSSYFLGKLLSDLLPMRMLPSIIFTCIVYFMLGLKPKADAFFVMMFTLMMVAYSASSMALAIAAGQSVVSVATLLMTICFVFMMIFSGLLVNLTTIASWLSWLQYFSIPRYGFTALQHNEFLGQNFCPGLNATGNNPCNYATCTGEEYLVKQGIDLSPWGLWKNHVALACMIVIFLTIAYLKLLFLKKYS"}
{"SMILES": "CC(C)OCCOCc1ccc(OCC(O)CN(N=O)C(C)C)cc1 (stereo not shown)", "target or system": "Escherichia coli", "test": "Ames test", "test system": "WP2 uvrA", "setting": "500 µg/plate, 30 % hamster S9", "scale": "relative to: solvent control", "quantity": "revertant fold increase", "value": "1 fold"}
{"SMILES": "O=C(c1ccc(OCCN2CCCCC2)cc1)c1c(-c2ccc(O)cc2)sc2cc(O[C@@H]3O[C@H](C(=O)O)[C@@H](O)[C@H](O)[C@H]3O)ccc12", "target or system": "SLCO1B3 (Homo sapiens, UniProt Q9NPD5)", "test": "substrate", "test system": "HEK293 expressing SLCO1B3", "setting": "pH 7.4", "quantity": "intrinsic clearance", "value": "1.81 µL/min/mg protein"}
{"SMILES": "Nc1ncc(-c2cc(-c3cnn(CC(F)(F)F)c3)ncc2F)nc1C(=O)NC1CNCC(F)C1 (stereo not shown)", "target or system": "AMPK-alpha1", "test": "KINOMEscan competition binding", "setting": "1 µM", "scale": "relative to: DMSO control", "quantity": "remaining binding", "value": "39%"}
{"SMILES": "O=C1C2CC3CC1CC(C(=O)N1CCN(c4ccc([N+](=O)[O-])c5ncccc45)CC1)(C3)C2", "target or system": "Escherichia coli", "test": "Ames test", "test system": "WP2 uvrA pKM101", "setting": "0.05 µg/well, without S9", "scale": "relative to: vehicle", "quantity": "revertant fold increase", "value": 1}
{"SMILES": "N#C[C@@H]1CC(F)(F)CN1C(=O)CNC(=O)c1ccnc2c(NC(=O)[C@H](CCCCNC(=O)CCOCCOCCOCCOCCOCCOCCNC(=O)CN3CCN(CC(=O)[O-])CCN(CC(=O)[O-])CCN(CC(=O)[O-])CC3)NC(=O)CCCc3ccc(I)cc3)cccc12.[177Lu+3]", "target or system": "U-87 MG tumour model", "test system": "host not given, stomach", "setting": "96 h, tumour-bearing", "quantity": "tracer uptake", "value": "0.06 %ID/g"}
{"SMILES": "COc1cccc(OC)c1-c1cc(C(=O)NC2(C(=O)O)C3CC4CC(C3)CC2C4)nn1-c1ccc(C(=O)N(C)CCCN(C)C(=O)[C@H](CCCCNC(=O)[C@H](CC(C)C)NC(=O)C2OC2C(=O)O)NC(=O)CN2CCN(CC(=O)[O-])CCN(CC(=O)[O-])CCN(CC(=O)[O-])CC2)cc1C(C)C.[177Lu+3] (mixture of isomers)", "target or system": "HT-29 tumour model", "test system": "host not given, blood", "setting": "4 h, tumour-bearing", "quantity": "tracer uptake", "value": "1.04 %ID/g"}
{"SMILES": "CC(C)Cc1ccc(C(C)C(=O)N[C@@H](CCCCNC(=O)CCOCCOCCOCCOCCOCCOCCNC(=O)CN2CCN(CC(=O)[O-])CCN(CC(=O)[O-])CCN(CC(=O)[O-])CC2)C(=O)Nc2cccc3c(C(=O)NCC(=O)N4CC(F)(F)C[C@H]4C#N)ccnc23)cc1.[177Lu+3] (stereo partly shown)", "target or system": "U-87 MG tumour model", "test system": "host not given, liver", "setting": "48 h, tumour-bearing", "quantity": "tracer uptake", "value": "2.42 %ID/g"}
{"SMILES": "C[n+]1ccc(/C=N/NC(=O)C(=O)N/N=C/c2cc[n+](C)cc2)cc1", "target or system": "MYC parallel G4 DNA", "test": "FRET melting", "setting": "1 µM, DNA 0.2 µM", "quantity": "ΔTm", "value": "2.4 ± 1.1 °C"}
{"SMILES": "N#Cc1cccc(-c2ccc(=O)n(Cc3cccc(-c4ncc(OCC5CCN(CC(=O)N6CCN(c7ccc8c(c7)C(=O)N(C7CCC(=O)NC7=O)C8=O)CC6)CC5)cn4)c3)n2)c1 (stereo not shown)", "target or system": "Caco-2", "test": "transwell monolayer", "setting": "2 µM, 120 min, pH 7.4, 0.1% DMSO, added: Ko143 10 µM", "quantity": "Papp A-B", "value": "0.07 ± 0.06 ×10⁻⁶ cm/s"}
{"SMILES": "CNc1nc(N)nc2c1ncn2[C@@H]1O[C@H](CO[P@](=O)(O)N[C@@H](C)C(=O)O)[C@@H](O)[C@@]1(C)F", "target or system": "ABCG2 (Homo sapiens, UniProt Q9UNQ0)", "test": "bidirectional transport", "test system": "MDCKII transfected with human BCRP", "setting": "10 µM, added: Ko143 1 µM", "quantity": "Papp A to B", "value": "1.15 ± 0.15 ×10⁻⁶ cm/s"}
{"SMILES": "C=C(NC(=O)c1csc(-c2nc3c(cc2O)-c2nc(cs2)C(=O)NC(C(C)O)C(=O)NC(=C(C)OC)c2nc(cs2)C(=O)NC2c4nc(cs4)C(=O)NC(COC(=O)c4c5c6c(cccc6n4O)COC(=O)C(OC4CC(C)(O)C(N(C)C)C(C)O4)C2OC5)c2nc-3cs2)n1)C(N)=O (stereo not shown)", "test system": "ICR mice, Streptococcus pneumoniae ATCC 49169 infected, immunocompromised, blood", "setting": "intravenous, 8 mg/kg/day twice daily", "quantity": "AUC(0-inf)", "value": "790 ng·h/mL"}
{"SMILES": "CCN(CC)CC#CCNc1ccnc2cc(Cl)ccc12", "target or system": "Salmonella typhimurium", "test": "mini-Ames test", "test system": "TA102", "setting": "125.0 µg/well, with rat liver S9", "quantity": "mean revertants", "value": "91 revertants/well"}
{"SMILES": "CC[n+]1cccc2cc(/C=N/NC(=O)c3ccc4ccc5ccc(C(=O)N/N=C/c6ccc7c(ccc[n+]7CC)c6)nc5c4n3)ccc21", "target or system": "MYC parallel G4 DNA", "test": "FRET melting", "setting": "1 µM, DNA 0.2 µM, added: duplex DNA competitor 10 µM", "quantity": "ΔTm", "value": "19.3 ± 0.3 °C"}
{"SMILES": "COC1CN([C@H]2CC[C@H]([C@@]3(C)Oc4c(Cl)cc(C(=O)NCc5c(SC)cc(C)[nH]c5=O)c(C)c4O3)CC2)C1", "test": "RNA-seq, measured: GNG12", "test system": "human, whole blood", "setting": "dose not given, 24 h", "scale": "relative to: pretreatment baseline", "quantity": "log2 fold change", "value": 4.08}
{"SMILES": "CC(C)C[C@H](NC(=O)[C@@H](CCCCNC(=O)[C@@H](Cc1ccccc1)NC(=O)CCCCCNC(=O)CN1CCN(CC(=O)O)CCN(CC(=O)O)CCN(CC(=O)O)CC1)NC(=O)[C@H](Cc1ccc(O)cc1)NC(=O)[C@H](CO)NC(=O)[C@H](Cc1c[nH]c2ccccc12)NC(=O)[C@H](Cc1c[nH]cn1)NC(=O)[C@@H]1CCC(=O)N1)C(=O)N[C@@H](CCCNC(=N)N)C(=O)N1CCC[C@H]1C(=O)NCC(N)=O [indium-111 labelled]", "test system": "female athymic nude mice, muscle", "setting": "intravenous, 0.037 MBq, 0.5 h", "quantity": "tissue uptake", "value": "0.16 ± 0.1 %ID/g"}
{"SMILES": "CNC(=O)C1CCCN(C(=O)C2CC3CCC2N3C(=O)[C@@H]2C[C@@H](O)CN2C(=O)NCc2cccc(Cl)c2F)C1 (mixture of isomers)", "target or system": "CYP3A4 (human)", "test": "inhibitor, time-dependent inhibition", "setting": "0.206 µM, preincubated with NADPH, added: testosterone substrate", "scale": "relative to: negative control", "quantity": "remaining activity", "value": "100%"}
{"note": "For quick reference, copied from above:"}
{"SMILES": "N#C[C@@H]1CC(F)(F)CN1C(=O)CNC(=O)c1ccnc2c(NC(=O)[C@H](CCCCNC(=O)CCOCCOCCOCCOCCOCCOCCNC(=O)CN3CCN(CC(=O)[O-])CCN(CC(=O)[O-])CCN(CC(=O)[O-])CC3)NC(=O)CCCc3ccc(I)cc3)cccc12.[177Lu+3]", "target or system": "U-87 MG tumour model", "test system": "host not given, stomach", "setting": "96 h, tumour-bearing", "quantity": "tracer uptake", "value": "0.06 %ID/g"}
